Results of several laboratories.
Parts stem from different laboratories: compare values within a part only. Changes are numbered by the printed parent chain.

Series 1
Target: RING finger protein unkempt homolog, zinc fingers 1-6, GST-SBP tag (UNK, Homo sapiens, UniProt Q9C0B0, residues 30-357)
Technique: RNA Bind-n-Seq
Form: RNA
Matrix: in vitro
Tested at: not given
Setting: RNA with constant flanks, human-mouse chimeric sites, ends assumed
Relative to: input RNA pool
Reading: higher = stronger binding
All sequences stand within: GGGAGUUCUACAGUCCGACGAUC … CAACAGAGGAUUGAGCAUCA
Construct (chain): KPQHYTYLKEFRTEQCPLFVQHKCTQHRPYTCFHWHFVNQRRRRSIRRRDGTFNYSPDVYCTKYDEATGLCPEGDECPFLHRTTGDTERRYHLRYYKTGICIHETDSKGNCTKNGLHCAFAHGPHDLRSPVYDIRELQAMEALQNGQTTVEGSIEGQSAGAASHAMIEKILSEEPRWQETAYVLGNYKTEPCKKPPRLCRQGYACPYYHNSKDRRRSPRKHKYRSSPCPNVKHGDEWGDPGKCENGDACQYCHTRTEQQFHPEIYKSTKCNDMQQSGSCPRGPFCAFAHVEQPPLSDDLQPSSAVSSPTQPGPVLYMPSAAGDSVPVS
Oligonucleotide | bound/input enrichment [ratio]
CACGUGUCUGCAGUACUUGAUGUGGACUACUCUCCCACUGGGAAGGAAUUUGUGUCUGCCAGCUUUGAUAAGUCUAUUCGAAUCUUUCCUGUGGACAAGAGCCGAAGCAGGGAGGUAUAU | 0.266
CUGAGGAUACCACUGAAAGAGACAUUAAAGAAUCAUUUGAGGGCUCUGUUCGUGCAAGAAUAGUCACUGAUCGGGAAACUGGUUCUUUCCAAAGGGUUGGUUUUGUAGACUUUAAUAGUG | 0.858
AUAAAGGCUAUGUUGAGUGGUCCAGGUCAGUUUGCUGAGAAUGAAACCAAUGAGGUCAAUUUUAGAGAGAUCCCCUCACAUGUGCUAUCAAAAGUGUGCAUGUAUUUUACGUACAAGGUC | 0.208
CGCUUGGAUGAGGCGGGUGUCACAGAUGAAGUGCUAGAUUCUGCCAUGCAAGCCUUCCUUCUGGAGGUUAUCGUUAAACAUGGGGAGCCGGCACCUUAUUUAUGUAACAAAGAUCCGUUU | 0.11
GAAUCCUACUCAGGCGGUCCCACAACAACCAAGCUCACAGCAGCAGCAUCUUAGUCACAGUAGGGUAGUUUUGGGGCUCUGUGGCCAUGGUUUUACUCACAUGCAGGUUUGGAAAAUGUA | 1.03
UCCCAAAUCCAGCAGCUAGAAGGAGCCUUGAGACAAACACUCCACACACAGGGAAGGCGAUAACAUUGUACAUUGGUUUACAUUUUUCUCCUUGAAUUUUUCUAGGGGAGGUCAUAGUGC | 0.7
AUUCCGAUUAUGGACACCGGUGAAAACCCAGAGGUUCCCUUCCCCCGGGACAUGAUUGACUUAGAGGCCAAUUUCGAGAAGAUUGAAAAUGAACUGAAGGAAAUCAACACAAACCAGGAA | 0.0988

Series 2
Target: CCNB3, cyclin fold, Cln2 fusion (human)
Technique: yeast growth competition, sequencing
Matrix: yeast
Setting: weak parent motif
Relative to: not given
Reading: higher = stronger binding
Starting sequence: RB1 docking peptide (human); PKPLKKLRFDIEG; partner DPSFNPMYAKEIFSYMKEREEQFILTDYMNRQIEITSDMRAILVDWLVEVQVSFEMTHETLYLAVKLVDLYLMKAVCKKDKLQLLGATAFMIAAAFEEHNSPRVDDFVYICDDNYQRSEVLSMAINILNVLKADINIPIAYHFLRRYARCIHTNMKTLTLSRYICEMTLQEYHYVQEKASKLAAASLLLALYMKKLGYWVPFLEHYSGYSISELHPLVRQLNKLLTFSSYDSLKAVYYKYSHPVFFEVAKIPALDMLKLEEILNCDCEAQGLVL
Substitution | normalised enrichment score
E12S | 0.125
L7A | -0.184
I11F | -0.228
K5Y | 0.406
L4K | -0.285

Series 3
Target: RNA binding protein fox-1 homolog 2, RRM domain, GST-SBP tag (RBFOX2, Homo sapiens, UniProt O43251-10, residues 100-194)
Technique: RNA Bind-n-Seq
Form: RNA
Matrix: in vitro
Tested at: 365 nM
Setting: natural RNA segment, single round, ends assumed
Relative to: no-protein control
Reading: higher = stronger binding
All sequences stand within: GGGAGUUCUACAGUCCGACGAUC … UGGAAUUCUCGGGUGCCAA
Construct (chain): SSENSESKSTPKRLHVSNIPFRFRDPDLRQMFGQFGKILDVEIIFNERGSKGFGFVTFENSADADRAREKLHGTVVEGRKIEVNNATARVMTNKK
Oligonucleotide | RBNS enrichment (R)
CUUUGAUAGAUCUCUGCCGGGGUCCUCAUGUUAGACACACGGGCAAAAUUAAGGCUUUAAAAAUACACAAAGAUUCCUCCACGUACUGGGAAGGCAAAGCAGAUAUGGAG | 0.389
GGAUCCUCCCAGCCCCCAGCCCGCCACCCUUCCAGCACUCCUCUCUAGAACCGACGACCACACACCGCCCCCGUGUUCCACCCAGCAAGCUCCGCUGGGAGACCCAGCGC | 0.776
UGUGGUUGUAAAAGCAAGCCCAGGAAAGGUGACCUCAUUCUCACGGACUGUGCUGUGCAGCUUUCCAAGUGUGUAUUAAAGUGACGCAUCAGUGGGUAGCUUGGGUUCCG | 0.624
CAUGAUCAUGAAUUCCAGUUAAUUUAUAAAGAGGCGAUUUUUGUGUGCCAUUCACACUGGUCUUUUUCACAUUGUUUUGAGCUUAUUGCAGUAUAUGUUUUGGGAUUUUU | 0.758
CUCUAGAUAAAAUCUUAUUUCUUCAUACAUUGGACCACAAGGCAUAAAGAAGGUAGCUCAGCGCCACUGAGAUUGUGUUCUGCAUAAUAUUUGGAAGGCUUCCAUUUCCA | 0.253

Single results of other studies
Substance | target | test | test system | conditions | scale | measurement | result
PhoQ, residues 284 288 289 292 302 303 SNSSNI | PhoP, residues 12 14 15 18 19 LYFRQ (Escherichia coli, UniProt P23836) | Sort-seq, item: YFP reporter | E. coli | PhoQ-PhoP variant library, added: 10 µM Mg2+ | relative to: high Mg2+ state, higher = stronger signaling | fold induction | 0.639

Excerpt of the above (series 1):
Oligonucleotide | bound/input enrichment [ratio]
CACGUGUCUGCAGUACUUGAUGUGGACUACUCUCCCACUGGGAAGGAAUUUGUGUCUGCCAGCUUUGAUAAGUCUAUUCGAAUCUUUCCUGUGGACAAGAGCCGAAGCAGGGAGGUAUAU | 0.266
CUGAGGAUACCACUGAAAGAGACAUUAAAGAAUCAUUUGAGGGCUCUGUUCGUGCAAGAAUAGUCACUGAUCGGGAAACUGGUUCUUUCCAAAGGGUUGGUUUUGUAGACUUUAAUAGUG | 0.858
AUAAAGGCUAUGUUGAGUGGUCCAGGUCAGUUUGCUGAGAAUGAAACCAAUGAGGUCAAUUUUAGAGAGAUCCCCUCACAUGUGCUAUCAAAAGUGUGCAUGUAUUUUACGUACAAGGUC | 0.208
